Experimental data pooled from the literature.
Compare with care: the assays were run in different laboratories. Several values in a cell are separate wells, animals, samples, runs or records. Numbers after ± are the reported error. ≈ marks a conversion by molar mass, not a printed value.

Compound	target	test	system	setting	scale	quantity	result
CC[C@@H]1[C@H](F)C(=O)N[C@@H]1COc1nccc2cc(C(N)=O)c(OC)cc12	Aurora A, B and C	ATP-site probe binding, inhibitor, ActivX ATP probe profiling	THP-1 cell lysate	0.01 mM, ATP loop site	–	inhibition	4.9%
[Ca+2]	human TRPA1 W1103A	ion current, two-electrode voltage clamp	Xenopus oocytes	-80 mV, together with: AITC	–	desensitization time constant	174 s and 101 s and 48 s and 176 s and 117 s and 331 s
c1coc(-c2n[nH]cc2-c2ccnc3ccccc23)c1	SAT4 (Candida albicans)	kinase binding, MIB/MS competition	Candida albicans lysate	1 µM	relative to: DMSO	log2 fold change	0.09
c1ccc(-c2n[nH]cc2-c2ccnc3ccccc23)nc1	Pom1 kinase Candida albicans	MIB/MS competition binding	Candida albicans cell lysate	1 µM	relative to: DMSO, lower = stronger binding	log2 fold change	1.54
COC(c1ccccc1)(c1ccccc1)[C@H](Oc1nc(C)cc(C)n1)C(=O)O	Nedd8-cullin1 interaction	neddylation, AlphaScreen	–	100 µM	–	inhibition	-197%
C[N+](C)(C)Cc1cccc(N=Nc2cccc(C[N+](C)(C)C)c2)c1	muscarinic potassium conductance, frog	ion current, photoswitch	atrial trabeculae	20 µM, flash photoisomerization, cis to trans, 80% cis, together with: carbachol 5 µM	–	rate constant	3.2 s⁻¹
O=P(O)(O)O[C@@H]1[C@H](O)[C@H](O)[C@@H](OP(=O)(O)O)[C@H](OP(=O)(O)O)[C@H]1O	IP3 receptor	Ca2+ release, agonist	MEF BI-1-/- (empty vector) permeabilized	–	–	EC50	0.00357 mM
C#Cc1cc(-c2cc(Nc3nc(N[C@@H](C)c4ccc(F)cn4)ncc3Cl)n[nH]2)ccc1C=O	panel of 416 human kinases	kinase activity	–	200 nM, hit threshold 1	–	number of kinase hits	16
CCCC(=O)Nc1ccc(OCC(O)CNC(C)C)c(C(C)=O)c1 (centres unmarked)	Nedd8-cullin1 interaction	neddylation, AlphaScreen	–	100 µM	–	inhibition	7.2%
N#Cc1ccn2c(-c3ccncc3)c(-c3ccc(F)cc3)nc2c1	Pom1 kinase Candida albicans	MIB/MS competition binding	Candida albicans cell lysate	10 µM	relative to: DMSO, lower = stronger binding	log2 fold change	-0.502
COc1ccc(-c2cc(=O)c3c(O)cc(O[C@@H]4O[C@H](CO[C@@H]5O[C@@H](C)[C@H](O)[C@@H](O)[C@H]5O)[C@@H](O)[C@H](O)[C@H]4O)cc3o2)cc1O	Nedd8-cullin1 interaction	neddylation, AlphaScreen	–	100 µM	–	inhibition	50.2%
CC(Nc1nc(N2CCCC2)nc2ccccc12)c1ccccc1 (centres unmarked)	transportin-1/2	FUS nuclear import, high content imaging	HeLa Kyoto reporter	31.65 µM, 2 h	–	cells with nuclear reporter	98.9%
COC(=O)C1=C(C)NC(C)=C(C(=O)O[C@@H]2CCCN(Cc3ccccc3)C2)[C@@H]1c1cccc([N+](=O)[O-])c1.Cl (racemic)	Nedd8-cullin1 interaction	neddylation, AlphaScreen	–	100 µM	–	inhibition	60.3%
O=C(O)C(=O)O	sulfate/chloride exchanger, human	sulfate influx, inhibitor	neutrophils	external site, together with: 2 µM nigericin, 85 mM K+	–	Ki	7.4 mM and 7.38 mM
Cc1n[nH]c2ccc(-c3cc(OC[C@@H](N)Cc4ccccc4)cnc3-c3ccoc3)cc12	Pom1 kinase Candida albicans	MIB/MS competition binding	Candida albicans cell lysate	1 µM	relative to: DMSO, lower = stronger binding	log2 fold change	-0.345
C=C(CC)C(=O)c1ccc(OCC(=O)O)c(Cl)c1Cl	sulfate/chloride exchanger, human	sulfate influx, inhibitor	neutrophils	together with: 2 µM nigericin, 85 mM K+	–	Ki	0.00708 mM and 0.0071 mM

Compound	target	test	system	setting	scale	quantity	result
N=C(N)NCCCN(CCCN)C[C@H]1O[C@@H](n2cnc3c(N)ncnc32)[C@H](O)[C@@H]1O	PRMT1	enzyme activity, inhibitor	–	–	relative to: SAH IC50 over compound IC50	relative IC50	14.4
C[n+]1cccc2cc(C=NNC(=O)c3ccc4ccc5ccc(C(=O)NN=Cc6ccc7c(ccc[n+]7C)c6)nc5c4n3)ccc21.[I-].[I-]	hairpin duplex DNA	UV melting	–	2 molar equivalents, DNA 3 µM	–	ΔTm	2 °C
[O]=[Mo](=[O])([OH])[OH]	sulfate/chloride exchanger, human	sulfate influx, inhibitor	neutrophils	external site, together with: 2 µM nigericin, 85 mM K+	–	Ki	52.7 mM
C[C@H](CCC(=O)O)[C@H]1CC[C@H]2[C@@H]3C[C@H](O)[C@@H]4C[C@H](O)CC[C@]4(C)[C@H]3CC[C@]12C	Nedd8-cullin1 interaction	neddylation, AlphaScreen	–	100 µM	–	inhibition	-34.9%
Nc1ncnc2c1ncn2[C@@H]1O[C@H](COP(=O)([O-])OP(=O)([O-])OP(=O)(O)O)[C@@H](O)[C@H]1O.[Mg+2]	P2X3 receptor (mouse, D158A)	ion current, patch clamp	nodose ganglion neurons, P2rx3 D158A/D158A mice	10 µM, compound anion form	relative to: ATP-induced current	relative current	0.107 ± 0.063
CCOC(=O)c1cc(Cl)cc(NC(=O)c2sc(Cl)cc2S(=O)(=O)N(C)c2ccc(OCC)c(OC)c2)c1	nuclear hormone receptors	binding	–	–	–	EC50	> 0.025 mM
C[N+](C)(C)NCCC(=O)[O-]	Nedd8-cullin1 interaction	neddylation, AlphaScreen	–	100 µM	–	inhibition	-16.5%
N#Cc1ccc2c(-c3ccncc3)c(-c3ccc(F)cc3)nn2c1	Pom1 kinase Candida albicans	MIB/MS competition binding	Candida albicans cell lysate	10 µM	relative to: DMSO, lower = stronger binding	log2 fold change	-1
Cc1cc(C(=O)NOCCO)c(Nc2ccc(I)cc2F)n(C)c1=O	TDO2 human	inhibitor	A-172	1 µM	–	kynurenine production	16%
[O]=[W](=[O])([OH])[OH]	sulfate/chloride exchanger, human	–	neutrophils	external binding site	–	Km	1000 µM
Oc1ccccc1-c1n[nH]cc1-c1ccnc2ccccc12	SAT4 (Candida albicans)	kinase binding, MIB/MS competition	Candida albicans lysate	1 µM	relative to: DMSO	log2 fold change	-0.03
CC[C@]12CCCN3CCc4c(n(c5ccccc45)[C@@](O)(C(=O)OC)C1)[C@@H]32	Nedd8-cullin1 interaction	neddylation, AlphaScreen	–	100 µM	–	inhibition	12%
O=C(O)CCC(=O)O	sulfate/chloride exchanger, human	sulfate influx, inhibitor	neutrophils	external site, together with: 2 µM nigericin, 85 mM K+	–	Ki	~80 mM
COc1cc(C(C)=O)ccc1OCCCN1CCC(c2noc3cc(F)ccc23)CC1	Nedd8-cullin1 interaction	neddylation, AlphaScreen	–	100 µM	–	inhibition	24.7%
Cc1c(CN2CCN(C(=O)[C@H](C)O)CC2)sc2c(N3CCOCC3)nc(-c3cnc(N)nc3)nc12	phospho-Akt	Akt phosphorylation, inhibitor	human patients with alveolar rhabdomyosarcoma, plasma	PK-PD study	–	IC50	6.7 ng/mL (≈ 0.0134 µM)
COc1nc(NCc2cn(-c3ccc(C(=O)Nc4ccc(C(F)(F)F)cc4)cc3)nn2)nc(OC)n1	VEGF (human)	sandwich ELISA	HCT-116	concentration not given	relative to: untreated cells	VEGF protein level reduction	38%

Repeated from above:
Compound	target	test	system	setting	scale	quantity	result
[Ca+2]	human TRPA1 W1103A	ion current, two-electrode voltage clamp	Xenopus oocytes	-80 mV, together with: AITC	–	desensitization time constant	174 s and 101 s and 48 s and 176 s and 117 s and 331 s
O=P(O)(O)O[C@@H]1[C@H](O)[C@H](O)[C@@H](OP(=O)(O)O)[C@H](OP(=O)(O)O)[C@H]1O	IP3 receptor	Ca2+ release, agonist	MEF BI-1-/- (empty vector) permeabilized	–	–	EC50	0.00357 mM
COc1nc(NCc2cn(-c3ccc(C(=O)Nc4ccc(C(F)(F)F)cc4)cc3)nn2)nc(OC)n1	VEGF (human)	sandwich ELISA	HCT-116	concentration not given	relative to: untreated cells	VEGF protein level reduction	38%
